# Experimental data collected from several papers.
# Protocols differ between the studies behind these lines. ± marks the error that the study gave.
Compound,test,test system,setting,solubility
COc1ccc2ccc3c(c2c1)C=[N+]1C2CCCCC2[N+]2=Cc4ccc(OCCN5CCCCC5)cc4[O][Au-]21[O]3.F[P-](F)(F)(F)(F)F (centres unmarked),,PBS-DMF,pH 7.4,127 µM
Cc1cc2c(cc1C1(c3ncc(C(=O)O)cn3)CC1)C(C)(C)CCC2(C)C,,deionized water,"24 h, 20 °C",67 ± 1 µM
O=S(=O)(O)c1cc(O)c(O)c(S(=O)(=O)O)c1,UV-vis spectroscopy,1 M H2SO4 without hydrotrope,pH 0,520000 ± 10000 µM
NS(=O)(=O)c1ccc(C(=O)N[C@@H]2OC[C@@H](O)[C@H](O)[C@H]2O)cc1,,water,,1%
C[N+]1(CC(=O)OC2CCCCCCCCCCC2)CCCCC1,,aqueous buffer,pH 7.4,171 µM
COc1cc(-c2nc3ccc(C(=O)NCCCN(C)C)cc3n2C2CCC2)cc(OC)c1OC,dynamic solubility,,,200 µM
CCCC1OC2CC3C4CCC5=CC(=O)C=CC5(C)C4C(O)CC3(C)C2(C(=O)COC(=O)C(C)N)O1 (centres unmarked),HPLC,water,"72 h, 25 °C",0.33 g/100 g
NS(=O)(=O)c1ccc(C(=O)N[C@@H]2O[C@H](CO)[C@H](O)[C@H](O)[C@H]2O)cc1,,water,,2.5%
O=C1c2ccc(S(=O)(=O)O)cc2C(=O)c2cc(S(=O)(=O)O)ccc21,UV-vis spectroscopy,1 M H2SO4 with 20 wt% sodium xylenesulfonate,,390000 ± 60000 µM
C=C(c1ncc(C(=O)O)cn1)c1cc2c(cc1C)C(C)(C)CCC2(C)C,,deionized water,"24 h, 20 °C",49 ± 1 µM
Cc1c(-c2ccc(Cc3ccc(OC(F)(F)F)cc3)cc2)[nH]c2cccc(F)c2c1=O,,dichloromethane,24 h,3300 µM
CC(=O)C=C(C)[O][Pd][c]1ccccc1C(=O)N=P12CN3CN(CN(C3)C1)C2,,DMSO:water 1:99,,800 µM
CC(=Nc1ccccc1)c1c(C)cc(=O)n(O)c1O,,,pH 6.5,≥ 200 µM
CC(C)(C)NC(=O)[C@@H]1C[C@@H]2CCCC[C@@H]2CN1C[C@@H](OC(=O)CCC(=O)OC[C@H](O)[C@H]1OC(=O)C(O)=C1O)[C@H](Cc1ccccc1)NC(=O)[C@H](CC(N)=O)NC(=O)c1ccc2ccccc2n1,,water,25 °C,4910 ± 400 µM
COc1cc(Cc2cnc(N)nc2N)cc(OC)c1OC.O=c1[nH]cc(F)c(=O)[nH]1,shake flask,dilute hydrochloric acid,"pH 1.2, room temperature",12900 µg/mL
COc1ccc(-c2cc(C(F)(F)F)nc(S(=O)(=O)CCC(=O)Nc3ccc(C)cc3)n2)cc1,,aqueous buffer,150 µM nominal,~17 µM
CC(C)=CCC[C@](C)(O)[C@H]1CC[C@]2(C)[C@@H]1[C@H](O)C[C@@H]1[C@@]3(C)CC[C@H](O)C(C)(C)[C@@H]3CC[C@]12C,,limonene,"72 h, 25 °C",1540 ± 258 µg/mL
CC[C@H](C)[C@H](NC(=O)[C@H](CC(N)=O)NC(=O)[C@H](CCC(=O)O)NC(=O)[C@H](CCC(=O)O)NC(=O)[C@H](CCC(=O)O)NC(C)=O)C(=O)N[C@@H](Cc1ccc(OP(=O)(O)O)cc1)C(=O)N[C@@H](CO)C(=O)N[C@H](C(=O)N1CCC[C@H]1C(=O)N[C@@H](Cc1c[nH]cn1)C(=O)N[C@@H](CC(=O)O)C(=O)N[C@@H](CO)C(=O)N[C@H](C(N)=O)[C@@H](C)O)C(C)C,,Tris buffer,pH 7.4,5000 µg/mL
NS(=O)(=O)c1ccc(C(=O)N[C@@H]2O[C@H](CO)[C@@H](O)[C@H]2O)cc1,,water,,2.5%
c1cc2nc(-c3ccc(-c4nc5ccc(C6=NCCN6)cc5[nH]4)[se]3)[nH]c2cc1C1=NCCN1,maximal concentration without aggregation,Tris buffer,,≤ 0.1 µM
NS(=O)(=O)NCC(F)(F)c1ccccc1F,shake-flask,water,pH 1.2,7600 µg/mL
CC[C@H](C)[C@H](NC(=O)[C@H](CC(C)C)NC(=O)[C@H](Cc1c[nH]cn1)NC(=O)[C@H](Cc1c[nH]cn1)NC(=O)[C@H](CC(C)C)NC(=O)[C@H](Cc1c[nH]c2ccccc12)NC(=O)[C@H](Cc1ccccc1)NC(=O)[C@H](CCCNC(=N)N)NC(=O)[C@H](CCCNC(=N)N)NC(=O)[C@H](CCCNC(=N)N)NC(=O)[C@H](CC(C)C)NC(=O)[C@H](CC(=O)O)NC(=O)[C@H](CCC(N)=O)NC(=O)[C@@H](NC(=O)[C@H](CO)NC(=O)[C@H](CCCCN)NC(=O)[C@@H](Cc1c[nH]c2ccccc12)NC(=O)[C@H](CC(C)C)NC(=O)[C@H](CC(=O)O)NC(=O)[C@H](Cc1c[nH]cn1)NC(=O)[C@H](CC(C)C)NC(=O)[C@@H](N)CC(C)C)[C@@H](C)CC)C(=O)N[C@@H](C)C(=O)N[C@@H](CCC(=O)O)C(=O)N[C@H](C(=O)N[C@@H](Cc1c[nH]cn1)C(=O)N[C@H](C(=O)N[C@@H](C)C(=O)N[C@@H](CCC(=O)O)C(=O)N[C@@H](Cc1ccc(O)cc1)C(N)=O)[C@@H](C)O)[C@@H](C)CC,,saline citrate Tween 80,pH 5.0,~7000 µg/mL
CCCCCCCCCCCC(=O)O[C@@H](C(=O)O[C@H]1C[C@@]2(O)[C@@H](OC(=O)c3ccccc3)[C@@H]3[C@]4(OC(C)=O)CO[C@@H]4C[C@H](O)[C@@]3(C)C(=O)[C@H](O)C(=C1C)C2(C)C)[C@@H](NC(=O)OC(C)(C)C)c1ccccc1,,BALB/c mouse plasma,"24 h, room temperature",377 ± 21.5 µg/mL
CC(C)(O)Cn1cc(-c2ccc3nc(OC(F)F)ccc3c2)c2c(N)ncnc21,,,pH 2,98.2 µM
O=c1nc(N2CCC(Oc3ccccc3F)CC2)sc2c([N+](=O)[O-])cc(C(F)(F)F)cc12,,water,37 °C,0.5 µg/mL
COc1cc(/C=C/C(=O)/C=C/c2ccc(O)c(OC)c2)ccc1O,HPLC,polyethylene glycol 400,,86200 ± 4340 µg/mL
CCCCCCCCCCCCCCCCCCCCCC(=O)O[C@@H](C(=O)O[C@H]1C[C@@]2(O)[C@@H](OC(=O)c3ccccc3)[C@@H]3[C@]4(OC(C)=O)CO[C@@H]4C[C@H](O)[C@@]3(C)C(=O)[C@H](O)C(=C1C)C2(C)C)[C@@H](NC(=O)OC(C)(C)C)c1ccccc1,,Miglyol 808,"24 h, room temperature",553000 ± 21000 µg/mL
O=C(O)c1ccc(/C=C2\SC(=S)N(Cc3cccc(C(F)(F)F)c3)C2=O)cc1,,DMA:EL:HP-β-CD vehicle,"pH 7.4, ratio 5:5:90, 10% w/v",1000 µg/mL
Nc1ccn(CC2COP(=O)(OCCNC(=O)CCCCC3SCC4NC(=O)NC43)CO2)c(=O)n1 (mixture of isomers),,,,56100 ± 1630 µg/mL
CCCCCCCCCCCCCCCCCC(=O)O[C@@H](C(=O)O[C@H]1C[C@@]2(O)[C@@H](OC(=O)c3ccccc3)[C@@H]3[C@]4(OC(C)=O)CO[C@@H]4C[C@H](O)[C@@]3(C)C(=O)[C@H](O)C(=C1C)C2(C)C)[C@@H](NC(=O)OC(C)(C)C)c1ccccc1,,Miglyol 808,"24 h, room temperature",550000 ± 23500 µg/mL
CCCC1OC2CC3C4CCC5=CC(=O)C=CC5(C)C4C(O)CC3(C)C2(C(=O)COC(=O)C(N)Cc2ccccc2)O1 (centres unmarked),HPLC,water,"72 h, 25 °C",0.0035 g/100 g
CC[C@H](C)[C@@H]1NC(=O)[C@H](CC(=O)O)NC(=O)[C@H](CC(=O)O)NC(=O)[C@@H]2CCCN2C(=O)[C@H]2CCCN2C(=O)[C@H](CC(=O)O)NC(=O)[C@H](Cc2ccc(O)cc2)NC(=O)[C@H]([C@@H](C)CC)NC(=O)[C@H](CO)NC(=O)[C@H](CCCCN)NC1=O,,water,complete dissolution at NMR concentration,≥ 2500 µg/mL

# A few entries again:
Compound,test,test system,setting,solubility
Cc1cc2c(cc1C1(c3ncc(C(=O)O)cn3)CC1)C(C)(C)CCC2(C)C,,deionized water,"24 h, 20 °C",67 ± 1 µM
O=S(=O)(O)c1cc(O)c(O)c(S(=O)(=O)O)c1,UV-vis spectroscopy,1 M H2SO4 without hydrotrope,pH 0,520000 ± 10000 µM
NS(=O)(=O)c1ccc(C(=O)N[C@@H]2OC[C@@H](O)[C@H](O)[C@H]2O)cc1,,water,,1%
C[N+]1(CC(=O)OC2CCCCCCCCCCC2)CCCCC1,,aqueous buffer,pH 7.4,171 µM
